# Published values pooled from the literature.
# Protocols differ between the studies behind these lines. ± marks the error that the study gave.
Compound,tested on,assay,system,conditions,how to read,measurement,result
COc1cc(CNC(=O)C[C@H](C)CCC=C(C)C)ccc1OCc1cn(-c2cccc(C(F)(F)F)c2)nn1,NCI-H226,SRB,,"10 µM, 48 h",,growth percent,72.3%
CCCCCCCCCCCCCCCC(=O)OCC(CSC[C@H](N)C(=O)N[C@@H](CO)C(=O)N[C@@H](CCCCN)C(=O)N[C@@H](CCCCN)C(=O)N[C@@H](CCCCN)C(=O)N[C@@H](CCCCN)C(=O)NCCCCCC(=O)N[C@@H](CCCCN)C(=O)N[C@@H](CC(C)C)C(=O)N[C@H](C(=O)N[C@@H](Cc1ccccc1)C(=O)N[C@@H](Cc1ccccc1)C(=O)N[C@@H](Cc1ccc2ccccc2c1)C(=O)O)C(C)C)OC(=O)CCCCCCCCCCCCCCC (some centres unmarked),BV-2,"RNA-seq, item: phagocytosis genes",,1.0 µM,,gene expression,increased
[Cl-].[Cl][Ru-4]123([n+]4ccccc4-c4cccc([n+]41)-c1cccc[n+]12)[n+]1ccc(-c2ccccc2)c2ccc4c(-c5ccccc5)cc[n+]3c4c21,HeLa XPA knockout,,,72 h,baseline: parental HeLa over XPA knockout,sensitization ratio,2 fold
CC(=O)OC[C@H]1O[C@@H](Sc2sc(C(=O)c3ccc(C)cc3)c(N)c2-c2nc3ccccc3s2)[C@H](OC(C)=O)[C@@H](OC(C)=O)[C@H]1OC(C)=O,SF-295,SRB,,"10 µM, 48 h",baseline: untreated,growth,96.9%
CC(=O)C1=C(C)NC(SCC(=O)c2ccccc2)=C(C#N)C1c1sccc1C (centres unmarked),"A549 cells, GR knockdown",,,"concentration not given, 24 h, weaker than with normal GR, together with: TNF-α 20 ng/mL",,COX-2 mRNA level,decreased
COC(=O)[C@@H]1[C@@H](OC)[C@H](OC(=O)c2cc(OC)c(OC)c(OC)c2)C[C@@H]2CN3CC[C@]4(O[C@@H]3C(=O)[C@@H]21)C(=O)Nc1cc(OC)c(-c2ccc(C(F)(F)F)cc2)cc14,RS4;11,annexin V/PI flow cytometry,,"10 µM, 72 h",,late apoptotic cells,82.6 ± 8.8%
COc1ccc(-c2ocnc2-c2cc(Br)c(OC)c(OC)c2)cc1OCCCC(=O)NO,HepG2 and Huh-7,,,,,concentration at maximal caspase-3 activity,0.6 µM
COc1ccc([C@@H]2CC(=O)c3c(O)cc(O[C@@H]4O[C@H](CO[C@@H]5O[C@@H](C)[C@H](O)[C@@H](O)[C@H]5O)[C@@H](O)[C@H](O)[C@H]4O)cc3O2)cc1O,MRC5,trypan blue exclusion,,"50 µg/mL, 48 h",,cell count,14600 ± 472
CC/C=C\C/C=C\C/C=C\C/C=C\C/C=C\C/C=C\CCC(=O)Nc1ccn(C2OC(CO)C(O)C2(F)F)c(=O)n1 (centres unmarked),NCI-H226,NCI60 screen,,,,TGI,2.75 µM
COc1cc2c(OC3OCC(OC)C(OC)C3OC(=O)c3ccc(Br)cc3)c3c(c(-c4ccc5c(c4)OCO5)c2cc1OC)C(=O)OC3 (centres unmarked),FaDu,"RT-qPCR, item: Twist",,"concentration not given, 36 h",,mRNA level,no effect
O=Cc1c(O)ccc2ccccc12,HUVEC,"RNA sequencing, item: CSGALNACT1",,"75 µM, 24 h",baseline: DMSO,log2 fold change,-3.2
C=C1C(=O)OC2C=C(C)CCC=C(C(=O)OC(C)C(C)(O)C(=O)OC3C(OC(C)=O)C(C(=O)OC)=CCCC(C)=CC4OC(=O)C(=C)C43)CC(OC(=O)C(C)=CC)C12 (centres unmarked),HeLa,PI staining flow cytometry,,"3 µM, 48 h",,G2/M phase cells,38.1%
COc1ccc(NC(=O)COc2ccc(/C=C/C(C)=N/O)cc2OC)cc1,SH-SY5Y,flow cytometry,,"40 µM, together with: amyloid beta 10 µM",,TNF-α expressing cells,8.43%
CCC(=O)N(C)c1ccc(Cl)c(Cl)c1,DBA/1 mouse splenocyte T cells,,,"50 to 200 µM, together with: anti-CD3/CD28",,IL-2 secretion,decreased
C[C@H](CC(=O)C[C@@H](C)[C@H]1C[C@H](O)[C@@]2(C)C3=C(C(=O)C[C@]12C)[C@@]1(C)CCC(=O)C(C)(C)[C@@H]1C[C@@H]3O)C(=O)O,3T3-L1 adipocytes,,,concentration not given,,glucose consumption,increased
COc1cc(CNC(=O)C[C@H](C)CCC=C(C)C)ccc1OCc1cn(-c2cccc([N+](=O)[O-])c2)nn1,K562 leukaemia cells,SRB,,"10 µM, 48 h",,growth percent,83.1%
O=C1CCC(N2C(=O)c3ccc(N4CCC(C(=O)N5CCC(CCN6CCC(CNC(=O)c7cccc(-c8noc(C(F)(F)F)n8)c7)(c7nc(-c8ccccc8)cs7)CC6)CC5)CC4)cc3C2=O)C(=O)N1 (centres unmarked),NB-4,flow cytometry,,"5 µM, 24 h",,sub-G0 cells,43.4%
C=C(CC)C(=O)c1ccc(OCC(=O)NCCNC(=O)COc2ccc(C(=O)C(=C)CC)c(Cl)c2Cl)c(Cl)c1Cl,SGC-7901/DDP,"cell growth, CCK-8",,72 h,,IC10,~1.2 µM
COc1cc(CNC(=O)C[C@H](C)CCC=C(C)C)ccc1O,K562 leukaemia cells,SRB,,"10 µM, 48 h",,growth percent,89.4%
CCC(=C(c1ccc(Cl)cc1)c1ccc(OCCCN(C)C)cc1)c1ccc(OC)cc1,MDA-MB-435,"cell growth or viability, SRB",,,,GI50,3.28 µM
Cc1ccc(CN2C(=O)/C(=N\c3ccc(Cl)cc3Br)c3ccccc32)cc1,RAW264.7 co-cultured with B16,,,1.5 µM,,CD206-positive cells,1.4%
COc1ccc(S(=O)(=O)N(CC(=O)O)c2c(C)c(C)c(N(CC(=O)O)S(=O)(=O)c3cccnc3)c(C)c2C)cc1,H9c2,flow cytometry DCFH-DA,,"10 µM, 12 h, together with: LPS 1 µg/mL",,ROS level,decreased
COc1cc2c(cc1C)NC(=O)C2=Cc1c(Cl)[nH]c2c1ccc1ccccc12,renal cancer subpanel of NCI-60,,,48 h,,TGI,8.13 µM
Cc1cccc(O[C@H]2CCC[C@@H](C(C)CNCc3ccncc3)C2)c1 (relative stereo),primary mouse cortical neurons,,,concentration not given,,decrease in ATP level,~20%
CC(=O)N[C@H](C(=O)N[C@H](C(=O)N[C@@H](CCCNC(=N)N)C(=O)N1Cc2ccccc2C[C@H]1C(=O)N[C@@H](Cc1ccccc1)C(N)=O)C1CCCCC1)C(C)C,MBP-specific BC-3 T cells,"Bio-Plex multiplex, item: FGF",,"200 µg/mL, 24 h, together with: MBP87-99 antigen",,cytokine level,2.1 ± 0.6 pg/mL
O=C(c1ccncc1)N1N=C2/C(=C/c3ccc4ccccc4c3)CCCC2C1c1ccc2ccccc2c1 (centres unmarked),human erythrocytes,HRBC membrane stabilization,,concentration not given,,membrane protection,86.2%
COc1ccc2c(=O)c(/C=C/C(=O)N3CCN(C(=S)SCCN(C)C)CC3)coc2c1,tomato spotted wilt virus,"viral infection, half-leaf method",Nicotiana glutinosa,500 µg/mL,,inactivation effect,61.9 ± 2.5%
COc1cc(CNC(=O)C[C@H](C)CCC=C(C)C)ccc1OCc1cn(-c2ccc(Br)cc2)nn1,K562 leukaemia cells,SRB,,"10 µM, 48 h",,growth percent,66.3%
CC(C)=CCc1cc([C@@H]2CC(=O)c3c(O)cc(O)c(CC=C(C)C)c3O2)cc(CC=C(C)C)c1O,3T3-L1 adipocytes,activator,,up to 100 µM,,glucose consumption,inactive
COc1ccc(C2=Nn3c(NN=C4C(=O)N(C)c5ccc(Br)cc54)nnc3SC2)cc1,SNB-75,"cell growth or viability, SRB",,10 µM,,inhibition,17%
COc1cc(CNC(=O)C[C@H](C)CCC=C(C)C)ccc1OCc1cn(-c2ccccc2[N+](=O)[O-])nn1,K562 leukaemia cells,SRB,,"10 µM, 48 h",,growth percent,51.5%
CCCCCCCCCCCCCC[C@@H](O)[C@@H](O)[C@H](CO[C@H]1O[C@H](CO)[C@H](O)[C@H](O)[C@H]1O)NC(=O)CCCCCCCCc1ccccc1,human Vα24+ NKT cells,,,"10 ng/mL, 24 h, HeLa-CD1d co-culture, unit not given",baseline: α-GalCer,IFN-γ secretion,1.56 ± 0.11
Cc1cc([C@H](C(=O)N2C[C@H](O)C[C@H]2C(=O)N[C@@H](CC(=O)N2CCC(N3CCC(C#Cc4ccc(C(=O)N[C@H]5C(C)(C)[C@H](Oc6ccc(C#N)c(Cl)c6)C5(C)C)cc4)CC3)CC2)c2ccc(-c3scnc3C)cc2)C(C)C)on1,MDA-MB-453,flow cytometry,,72 h,,apoptosis-inducing concentration,0.5 µM
CCOC(=O)COc1cc(Oc2ccc(S(=O)(=O)c3ccc(OC(C)C)cc3)cc2)c([N+](=O)[O-])cc1C(=O)C(Cl)Cl,NCI-H1650,"cell growth or viability, MTT",,2.5 µM,,inhibition,> 95%
O=C1C(=NN=c2[nH]ccs2)c2cc(Cl)ccc2N1CCn1ncc2c(=O)[nH]cnc21,BALB/3T3 and HepG2,cell growth,,,baseline: IC50 BALB/3T3 over HepG2,selectivity ratio,2.8

# Excerpt of the above:
Compound,tested on,assay,system,conditions,how to read,measurement,result
COc1cc(CNC(=O)C[C@H](C)CCC=C(C)C)ccc1OCc1cn(-c2ccccc2[N+](=O)[O-])nn1,K562 leukaemia cells,SRB,,"10 µM, 48 h",,growth percent,51.5%
CCCCCCCCCCCCCC[C@@H](O)[C@@H](O)[C@H](CO[C@H]1O[C@H](CO)[C@H](O)[C@H](O)[C@H]1O)NC(=O)CCCCCCCCc1ccccc1,human Vα24+ NKT cells,,,"10 ng/mL, 24 h, HeLa-CD1d co-culture, unit not given",baseline: α-GalCer,IFN-γ secretion,1.56 ± 0.11
Cc1cc([C@H](C(=O)N2C[C@H](O)C[C@H]2C(=O)N[C@@H](CC(=O)N2CCC(N3CCC(C#Cc4ccc(C(=O)N[C@H]5C(C)(C)[C@H](Oc6ccc(C#N)c(Cl)c6)C5(C)C)cc4)CC3)CC2)c2ccc(-c3scnc3C)cc2)C(C)C)on1,MDA-MB-453,flow cytometry,,72 h,,apoptosis-inducing concentration,0.5 µM
CCOC(=O)COc1cc(Oc2ccc(S(=O)(=O)c3ccc(OC(C)C)cc3)cc2)c([N+](=O)[O-])cc1C(=O)C(Cl)Cl,NCI-H1650,"cell growth or viability, MTT",,2.5 µM,,inhibition,> 95%
